# Published values of several laboratories.
# Each line is one published result; not all experiments were run side by side. Numbers after ± are the reported error.
Compound,tested on,test,system,setting,endpoint,result
Nc1nc2nc[nH]c2c(=S)[nH]1,HEK293T,,,48 h,CC50,> 100 µM
O=C1NC2(CC2)COc2ncc(F)cc2[C@H]2COCCN2c2ccn3ncc1c3n2,,,"Sprague-Dawley rat, female, liver","oral, 10 mg/kg/day, 4 weeks, end of treatment",organ-to-body weight ratio,3.6 ± 0.344%
Cc1ccc(N)cc1C(=O)N[C@H](C)c1cccc2ccccc12,HEK293T,,,48 h,CC50,275 µM
Nc1ccc(-n2[se]c3ccccc3c2=O)cc1,HPAEpiC,"cell growth or viability, MTT",,24 h,CC50,49.6 µM
Cc1cc(Nc2ncc(Cl)c(Nc3ccccc3S(=O)(=O)C(C)C)n2)c(OC(C)C)cc1C1CCNCC1,HEK293T,,,48 h,CC50,21.1 µM
C[C@H]1[C@H](OC(=O)CCC(=O)OCc2nnn(-c3cc4ccc(O)cc4oc3=O)c2COC(=O)CCC(=O)O[C@@H]2O[C@@H]3O[C@@]4(C)CC[C@H]5[C@H](C)CC[C@@H]([C@H]2C)[C@@]35OO4)O[C@@H]2O[C@@]3(C)CC[C@H]4[C@H](C)CC[C@@H]1[C@@]24OO3,J774,"cell growth or viability, ATP luminescence",,72 h,CC50,32.8 µM
O=C(CCN(CCC(=O)N[C@@H](Cc1c[nH]c2ccccc12)C(=O)O)C(=O)CCN(CCC(=O)N(CCC(=O)N[C@@H](Cc1c[nH]c2ccccc12)C(=O)O)CCC(=O)N[C@@H](Cc1c[nH]c2ccccc12)C(=O)O)C(=O)c1cc(C(=O)N(CCC(=O)N(CCC(=O)N[C@@H](Cc2c[nH]c3ccccc23)C(=O)O)CCC(=O)N[C@@H](Cc2c[nH]c3ccccc23)C(=O)O)CCC(=O)N(CCC(=O)N[C@@H](Cc2c[nH]c3ccccc23)C(=O)O)CCC(=O)N[C@@H](Cc2c[nH]c3ccccc23)C(=O)O)cc(C(=O)N(CCC(=O)N(CCC(=O)N[C@@H](Cc2c[nH]c3ccccc23)C(=O)O)CCC(=O)N[C@@H](Cc2c[nH]c3ccccc23)C(=O)O)CCC(=O)N(CCC(=O)N[C@@H](Cc2c[nH]c3ccccc23)C(=O)O)CCC(=O)N[C@@H](Cc2c[nH]c3ccccc23)C(=O)O)c1)N[C@@H](Cc1c[nH]c2ccccc12)C(=O)O,HEL or HeLa cells,cell viability,,,CC50,> 100 µM
O=c1c2ccccc2[se]n1-c1ccnc(Cl)c1,HPAEpiC,"cell growth or viability, MTT",,24 h,CC50,> 100 µM
C[C@H]1[C@@H](OCc2nnn(-c3cc4ccc(O)cc4oc3=O)c2CO[C@H]2O[C@@H]3O[C@@]4(C)CC[C@H]5[C@H](C)CC[C@@H]([C@H]2C)[C@@]35OO4)O[C@@H]2O[C@@]3(C)CC[C@H]4[C@H](C)CC[C@@H]1[C@@]24OO3,J774,"cell growth or viability, ATP luminescence",,72 h,CC50,5.21 µM
O=c1c2ccccc2[se]n1-c1ccccc1,HEK293T,,,48 h,CC50,> 100 µM
CC(C)CC(NC(=O)OCc1ccccc1)C(=O)NC(CC1CCNC1=O)C(=O)C(=O)NC1CC1 (centres unmarked),RD,,,5 (unit not given),CC50,> 250 µM
O=C(CCN(CCC(=O)N[C@@H](Cc1c[nH]c2ccccc12)C(=O)O)C(=O)CCN(CCC(=O)N(CCC(=O)N[C@@H](Cc1c[nH]c2ccccc12)C(=O)O)CCC(=O)N[C@@H](Cc1c[nH]c2ccccc12)C(=O)O)C(=O)CCC(CCC(=O)N(CCC(=O)N(CCC(=O)N[C@@H](Cc1c[nH]c2ccccc12)C(=O)O)CCC(=O)N[C@@H](Cc1c[nH]c2ccccc12)C(=O)O)CCC(=O)N(CCC(=O)N[C@@H](Cc1c[nH]c2ccccc12)C(=O)O)CCC(=O)N[C@@H](Cc1c[nH]c2ccccc12)C(=O)O)(CCC(=O)N(CCC(=O)N(CCC(=O)N[C@@H](Cc1c[nH]c2ccccc12)C(=O)O)CCC(=O)N[C@@H](Cc1c[nH]c2ccccc12)C(=O)O)CCC(=O)N(CCC(=O)N[C@@H](Cc1c[nH]c2ccccc12)C(=O)O)CCC(=O)N[C@@H](Cc1c[nH]c2ccccc12)C(=O)O)[N+](=O)[O-])N[C@@H](Cc1c[nH]c2ccccc12)C(=O)O,HEL or HeLa cells,cell viability,,,CC50,> 100 µM
O=c1c2ccccc2[se]n1-c1cccc(F)c1,HPAEpiC,"cell growth or viability, MTT",,24 h,CC50,> 100 µM
CC(C)CC(=O)OC1C=CC=CC(=O)OC2C(C)CC3C2(O)C(O)C2(CO)OC2C2C4OC5(c6ccccc6)OC(C(C)C23O5)C4(O)C(C)(O)CC2CCC1C2C (centres unmarked),HeLa-ACE2,"cell growth or viability, ATP luminescence",,72 h,CC50,12.7 µM
